Results of several laboratories.
Compare with care: the assays were run in different laboratories. “And” joins repeats or separate records; there may be more than shown. ± gives the spread as reported.
Chain of UniProt P10635 (whole entry, looked up): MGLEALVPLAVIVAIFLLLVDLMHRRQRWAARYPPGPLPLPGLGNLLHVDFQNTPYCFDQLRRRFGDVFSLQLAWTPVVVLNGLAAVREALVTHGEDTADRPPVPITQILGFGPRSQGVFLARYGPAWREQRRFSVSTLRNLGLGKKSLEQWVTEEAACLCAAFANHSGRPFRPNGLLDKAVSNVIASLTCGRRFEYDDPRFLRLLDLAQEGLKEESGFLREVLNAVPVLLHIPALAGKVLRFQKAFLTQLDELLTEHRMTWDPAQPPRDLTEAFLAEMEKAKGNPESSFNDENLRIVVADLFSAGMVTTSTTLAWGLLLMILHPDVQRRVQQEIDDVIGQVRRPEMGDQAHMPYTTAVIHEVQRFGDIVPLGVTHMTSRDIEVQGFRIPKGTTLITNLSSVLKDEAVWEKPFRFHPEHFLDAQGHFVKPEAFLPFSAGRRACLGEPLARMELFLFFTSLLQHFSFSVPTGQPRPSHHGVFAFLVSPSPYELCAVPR
Chain of UniProt P06873 (whole entry, looked up): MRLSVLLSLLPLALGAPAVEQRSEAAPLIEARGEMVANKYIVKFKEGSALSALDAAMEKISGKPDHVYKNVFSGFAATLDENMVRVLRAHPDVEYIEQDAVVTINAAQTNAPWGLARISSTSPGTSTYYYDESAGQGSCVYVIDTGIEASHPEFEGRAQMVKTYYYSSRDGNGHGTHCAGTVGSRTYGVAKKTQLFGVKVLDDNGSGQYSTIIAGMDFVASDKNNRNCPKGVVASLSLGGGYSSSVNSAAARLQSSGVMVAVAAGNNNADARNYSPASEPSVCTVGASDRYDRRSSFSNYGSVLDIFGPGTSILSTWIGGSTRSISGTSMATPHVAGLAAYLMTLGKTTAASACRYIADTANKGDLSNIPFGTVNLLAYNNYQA

Under “revertant fold increase”, `O=C1C2CC3CC1CC(C(=O)N1CCN(c4ccc([N+](=O)[O-])c5ncccc45)CC1)(C3)C2` is recorded as 1 (Escherichia coli; Ames test; WP2 uvrA pKM101; 0.05 µg/well, with S9; relative to: vehicle).
With `COc1ccc2c(c1)C(C)(C)C(/C=C/C1=C(Oc3ccc(C(=O)NCCCCOc4cc(CN(Cc5ccccn5)Cc5ccccn5)cc(CN(Cc5ccccn5)Cc5ccccn5)c4)cc3)C(=C/C=C3/N(CCCCS(=O)(=O)[O-])c4ccc(OC)cc4C3(C)C)CCC1)=[N+]2CCCCS(=O)(=O)[O-].O=[N+]([O-])[O-].O=[N+]([O-])[O-].[99Tc+].[C-]#[O+].[C-]#[O+].[C-]#[O+].[Zn+2]` the tissue uptake was 0.45 %ID/g (Staphylococcus aureus; BALB/c mice, bacterial myositis, adipose; 12 h).
With `COc1ccc(CCN(C)CCCC(C#N)(c2ccc(OC)c(OC)c2)C(C)C)cc1OC` (stereo not drawn) the translation activity was 86.4% (Trypanosoma cruzi; reporter mRNA translation, inhibitor, item: Renilla luciferase mRNA; cell-free extract; concentration not given, test 3; relative to: positive over negative control).
For `CCCC[C@H](NC(C)=O)C(=O)N[C@@H](CO)C(=O)N[C@H](C(=O)N1CCC[C@H]1C(=O)N[C@]1(C)CCCCCCC=CCCC[C@@](C)(C(=O)N[C@@H](Cc2ccccc2)C(=O)N[C@@H](CCCCN)C(=O)N[C@@H](CCCNC(=N)N)C(=O)N[C@@H](CC(C)C)C(=O)N[C@@H](CCC(N)=O)C(N)=O)NC(=O)[C@H](CCCNC(=N)N)NC(=O)[C@H](CCCC)NC(=O)[C@H](CC(C)C)NC(=O)[C@H](CCCNC(=N)N)NC(=O)[C@H](CCCNC(=N)N)NC(=O)[C@H](CCCNC(=N)N)NC1=O)[C@@H](C)O`, “remaining intact peptide” read 31.9% (Proteinase K (PROK, Engyodontium album, UniProt P06873); proteolytic stability, LC-MS; 25 µM, 615.1 min, pH 7.4).
The revertant colonies of `O=C1NC2(CC2)COc2ncc(F)cc2[C@H]2COCCN2c2ccn3ncc1c3n2` is reported as 72 ± 8 revertants/plate (Salmonella typhimurium; Ames test; TA100; 500 µg/plate, 48 h, added: rat liver S9).
`O=C(Oc1cc(OC(=O)c2cc(O)c(O)c(O)c2)c2ccccc2c1)c1cc(O)c(O)c(O)c1` gave a therapeutic index of 20.8 (Herpes simplex virus 2; HeLa, 333; relative to: CC50 over IC50).
With `COc1ccc(C(=O)OC2CCN(C)CC2)cc1` the translation activity was 103% (Trypanosoma cruzi; reporter mRNA translation, inhibitor, item: Renilla luciferase mRNA; cell-free extract; concentration not given, test 3; relative to: positive over negative control).
`CC(C)OCCOCc1ccc(OCC(O)CN(N=O)C(C)C)cc1` (stereo not drawn) — result for “revertant fold increase”: 1.5 fold (Salmonella typhimurium; Ames test; TA1535; 5000 µg/plate, 30 % rat S9; relative to: solvent control).
`CN1CCCN(c2cnc3c(cc(C(=O)NCc4ccc(Cl)cc4)c(=O)n3CC(=O)N3CC(C)(F)C3)n2)C1=O` has a selectivity ratio of greater than 21.2 (human cytomegalovirus; MRC-5, AD169-GFP; relative to: CC50 over EC50).
`CCN(CC)CC#CCNc1ccnc2cc(Cl)ccc12` gave a revertants of 4 revertants/well and 0 revertants/well (Salmonella typhimurium; mini-Ames test; TA1535; 250.0 µg/well, without S9).
`COC(=O)Nc1nc2cc(C(O)c3ccc(F)cc3)ccc2[nH]1` (stereo not drawn) has a revertants of 13.3 revertants/plate (Salmonella typhimurium; Ames preincubation test; TA1535; 218.8 µg/plate, without S9).
For `CNC(=O)C1CCCN(C(=O)C2CC3CCC2N3C(=O)[C@@H]2C[C@@H](O)CN2C(=O)NCc2cccc(Cl)c2F)C1` (mixture of isomers), the dextrorphan formation was 119 ng/mL (Cytochrome P450 2D6 (CYP2D6, Homo sapiens, UniProt P10635); enzyme activity, inhibitor, time-dependent inhibition; 0.617 µM, preincubated with NADPH).

For quick reference, copied from above:
With `COc1ccc(CCN(C)CCCC(C#N)(c2ccc(OC)c(OC)c2)C(C)C)cc1OC` (stereo not drawn) the translation activity was 86.4% (Trypanosoma cruzi; reporter mRNA translation, inhibitor, item: Renilla luciferase mRNA; cell-free extract; concentration not given, test 3; relative to: positive over negative control).
